Published values pooled from the literature.
Several values in a cell are separate wells, animals, samples, runs or records. ± gives the spread as reported.

NC(=O)N1c2ccccc2C=Cc2ccccc21
time to fall (rotarod test; mouse, CCI neuropathic pain model; 20 mg/kg): 1.61 ± 0.09 min

CN(C(=O)n1cnc(-c2cccnc2)c1)C1CCCCC1
concentration (Wistar rat, midbrain; oral, 10 mg/kg/day of BIA 10-2474, 48 h, repeated 5 days): 8.7 ± 0.2 ng/g

COc1ncc(-c2nc3c(n2C(C)C)[C@H](c2ccc(Cl)cc2)N(c2cc(Cl)cn(C)c2=O)C3=O)c(OC)n1
median Tmax (human patients, plasma; oral, 400 mg, high-dose arm, cycle 1 day 1): 3 h

Cc1cc(NC2CCN(C(=O)OC3CCN(C(=O)/C=C/CN(C)C)C3)CC2)n2ncc(C(C)C)c2n1 (centres unmarked)
patients with adverse event (Phase I dose escalation CTCAE v4.0, refers to: abdominal pain; patients with advanced solid tumours; dose not given, Total dosing grade 3 or higher): 2%

COc1ccc2c(=O)n(C)c(-c3ccccc3)nc2c1
tissue/plasma ratio (Sprague-Dawley rat, male, lung; oral, 30 mg/kg, 0.5 h; relative to: lung over plasma): 0.84

CC(C)(C)c1ccc(O)c(CN(Cc2cc(C(C)(C)C)ccc2O)C2CCC(NC(N)=O)CC2)c1 (centres unmarked)
recovery (mouse plasma; 5 ng/mL, 24 h, 25 °C, short-term storage): 99.6 ± 1.55%

CCc1cc(C(=O)NC)c2nccc(N3CCc4c(cc(Cn5ccnc5)cc4-c4cn(C)nc4C(F)(F)F)C3=O)c2c1
blood HDW (Sprague Dawley rats; oral, 100 mg/kg twice daily, 7 days): 22.8 ± 0.76 g/L

CNCc1ccc(-c2[nH]c3cc(F)cc4c3c2CCNC4=O)cc1
decreased appetite incidence (patients; oral, 240 mg twice daily, all grades): 66.7%

COc1ccc2[nH]c([S+]([O-])Cc3ncc(C)c(OC)c3C)nc2c1 (centres unmarked)
AUC(0-t) (healthy Chinese volunteers CYP2C19 IM, plasma; oral, 20 mg single dose, enteric-coated capsules): 724 ± 524 ng·h/mL

CCN1/C(=C/C(C)=O)Sc2ccc(F)cc21
QT interval (cynomolgus monkey; oral, 30 mg/kg, 1 h post-dose): 250 ± 23 ms

O=C(Cn1ccc([N+](=O)[O-])n1)N1CCCc2ccccc21
logP (octanol/buffer; pH 11, known kinase inactives set): 2.01

CCO[C@H]1CCN(Cc2c(OC)cc(C)c3[nH]ccc23)[C@H](c2ccc(C(=O)O)cc2)C1
incidence musculoskeletal chest pain (PNH patients, active haemolysis; oral, 50 mg, 4 weeks, treatment): 0%

Cn1c(=O)c2c(ncn2C)n(C)c1=O
CSF concentration (human, both sexes, cerebrospinal fluid; dose not given, mean): 1350 nM

COc1cccc(OC)c1NS(=O)(=O)c1ccc(N/C=C2\C(=O)Nc3ccc4ncsc4c32)cc1
logP (octanol/buffer, 40 mM buffer; pH 11): 2.69

CC(C)C[C@H](NC(=O)[C@H](CC(C)C)NC(=O)C(C)(C)NC(=O)[C@@H](NC(=O)[C@H](CCC1CCCCC1)NC(=O)[C@@H]1CCCN1C(=O)c1ccc(F)cc1)[C@H](O)C(C)C)C(=O)NC(C)(C)C(=O)NC(C)(C)C(=O)NCCC(=O)N[C@@H](C)CN(C)C
alpha-helix content (circular dichroism; phosphate buffer; pH 7.4, 20 °C): 87.2%

CCN1CCN(Cc2ccc(Nc3ncc(F)c(-c4cc(F)c5nc6n(c5c4)[C@H](C)CCC6)n3)nc2)CC1
Cmax (human, plasma; 400 mg single dose, mean): 196 ng/mL

N#Cc1ccc2c(c1)[C@H]1CCCN(C(=O)c3ccc4[nH]cnc4c3)[C@H]1C2
SHBG level (human males; 80 mg, day 7): 33.2 nmol/L

CC[C@H](C)[C@@H]1NC(=O)[C@@](C)(NC(=O)[C@H](CCCNC(=N)N)NC(=O)[C@H](CC(C)C)NC(=O)[C@@H](NC(=O)[C@H](CCC(N)=O)NC(=O)[C@H](CC(C)C)NC(C)=O)[C@@H](C)O)CCCC=CCCC[C@@](C)(C(=O)N[C@@H](CC(C)C)C(=O)N[C@@H](Cc2ccc3ccccc3c2)C(N)=O)NC(=O)[C@H](CCCNC(=N)N)NC(=O)[C@H](CCC(N)=O)NC1=O
Vz (BALB/c mouse; intravenous, 5 mg/kg): 0.005 L

NC1(C(=O)N[C@@H](CCO)c2ccc(Cl)cc2)CCN(c2nc[nH]c3nccc2-3)CC1
dose-normalised AUC(0-last) (human, plasma; oral, 480 mg twice daily, added: enzalutamide 160 mg daily): 2000 ng·h/mL and 3290 ng·h/mL and 1880 ng·h/mL and 3450 ng·h/mL and 4360 ng·h/mL

CCOC(=O)c1cnc(Nc2nc3ccccc3o2)nc1CN1CCN(c2ccccc2)CC1
logP (octanol/buffer; pH 11, known kinase inactives set): 2.89

A few entries again:
COc1ccc2[nH]c([S+]([O-])Cc3ncc(C)c(OC)c3C)nc2c1 (centres unmarked)
AUC(0-t) (healthy Chinese volunteers CYP2C19 IM, plasma; oral, 20 mg single dose, enteric-coated capsules): 724 ± 524 ng·h/mL

CC(C)C[C@H](NC(=O)[C@H](CC(C)C)NC(=O)C(C)(C)NC(=O)[C@@H](NC(=O)[C@H](CCC1CCCCC1)NC(=O)[C@@H]1CCCN1C(=O)c1ccc(F)cc1)[C@H](O)C(C)C)C(=O)NC(C)(C)C(=O)NC(C)(C)C(=O)NCCC(=O)N[C@@H](C)CN(C)C
alpha-helix content (circular dichroism; phosphate buffer; pH 7.4, 20 °C): 87.2%
